# Measurements collected from several papers.
# Protocols differ between the studies behind these lines. Several values in a cell are separate wells, animals, samples, runs or records. ± gives the spread as reported.
SMILES,test,system,setting,how to read,quantity,result
CN[C@@H]1COc2c(S(=O)(=O)NC(=O)Nc3c4c(cc5c3CCC5)CCC4)cnn2C1,,"human, serum","oral, 900 mg twice daily, day 9, added: midazolam",,ALT,89 U/L
C=CC1(C)CC(OC(=O)CSCCCCCN(C)C)C2(C)C(C)CCC3(CCC(=O)C32)C(C)C1O (stereo not drawn),,sheep erythrocytes,"1 h, pH 7.5",,maximum haemolysis,2.59%
COc1cc2c3c(n(CCCN4CCOCC4)c(=O)c2cc1OC)-c1cc2c(cc1C3=O)OCO2,,"beagle dog, female, plasma","intravenous infusion, 100 mg/m^2, 1 h infusion, vehicle 1",,CL,36.6 ± 9.9 L/h/m²
C[C@@H](N)C1CCN(S(=O)(=O)c2cccc3cnccc23)CC1,,healthy volunteers,"75 mg, fasted",,participants with limb abscess,0%
OCc1nc2ccc(NCc3ccc(C(F)(F)F)cc3)cc2[nH]1,,"Balb/c mice, male, plasma","intravenous, 1 mg/kg",,Vz/F,28.7 ± 4.5 L/kg
COc1cccc(OC)c1-c1cc(C(=O)NC2(C(=O)O)C3CC4CC(C3)CC2C4)nn1-c1ccc(C(=O)N(C)CCCN(C)CCCN(C)C(=O)CN2CCN(CC(=O)[O-])CCN(CC(=O)[O-])CCN(CC(=O)[O-])CC2)cc1C(C)C.[177Lu+3] (stereo not drawn),,"mouse, HT-29 xenograft, brain",72 h post injection,,tissue uptake,0.056 %ID/g
CC(C)n1nc(-c2ccc3oc(N)nc3c2)c2c(N)ncnc21,,"human, plasma","oral, 20 mg once weekly, cycle 1 day 1",,AUC(0-last),1560 ng·h/mL
Cn1cc(-c2cn3nccc3c(-c3cnn([C@]4(CC#N)C[C@@H](C#N)C4)c3)n2)cn1,,"healthy humans fasted, plasma","10 mg single dose, geometric mean",,mean residence time,7.8 h
O=C(O)CCCOc1ccc([18F])cc1-c1cc(-c2ccccc2C(F)(F)F)n(-c2ccccc2)n1,gamma counting,"male ddY mice, bone","intravenous, 2.1 MBq, 30 min",,radioactivity uptake,0.98 ± 0.17 SUV
CC(C)C[C@H](NC(=O)[C@@H]1COCCCCCC(=O)N2C[C@H](F)C[C@H]2C(=O)N1)C(=O)[C@@]1(C)CO1,,male BALB/c mice,"intravenous, 72 h",,highest dose without toxicity,100 mg/kg
CCc1c(-c2ccccc2)c(-c2ccccc2)nn1-c1ccccc1-c1cccc(OCC(=O)O)c1,,Sprague-Dawley rat,"oral, dose not given",,AUMC(0-t),13500 h²·ng/mL and 17200 h²·ng/mL and 17300 h²·ng/mL
C[C@H]1CNC(=O)c2cnn3ccc(nc23)N[C@H](C)c2cc(F)ccc2O1,,"Balb/c nude mice, female, plasma","oral, 15 mg/kg twice daily, 1 h, steady state",,unbound concentration,58 ± 19 nM
COc1cc2[nH]c(C)c(-c3ccc(OC(C)C)cc3)c(=O)c2cc1Cl,,PAMPA,pH 7.4,,Papp,427 ×10⁻⁶ cm/s
CNC(=O)c1ccc(-c2cnc3ncc(Cc4ccc5ncccc5c4)n3n2)cc1F,,healthy human subjects,"oral, 200 mg, Nausea, grade 3, all causality, added: itraconazole 200 mg/day",,subjects with adverse event,0%
Cc1c(Cl)c(C)[n+]([O-])c(Cl)c1-c1noc(-c2cc(O)c(O)c([N+](=O)[O-])c2)n1,,healthy Chinese subjects,"oral, 100 mg, 4 days",,adverse drug reaction incidence,0%
CC(C)n1c(Nc2cccnc2)nc2cnc(Nc3ccc(N4CCN(C)CC4)cc3)nc21,item: gum pain,healthy male subjects,"oral, 150 mg, study, added: rifampin",,subjects with adverse event,0%
N#Cc1ccc2c(c1)[C@H]1CCCN(C(=O)c3ccc4[nH]cnc4c3)[C@H]1C2,,"human, male","10 mg, day 15",,DHEA-S level,5.8 µmol/L
Cc1cc(Nc2cc3ncccc3c(N[C@@H]3C[C@H]4CC[C@@H](C3)N4CCC#N)n2)n[nH]1,,healthy human subjects,"oral, 30 mg, 2 weeks, single ascending dose",,papular rash incidence,0%
O=S(=O)(c1ccc(-c2ccc3nccc(Nc4ccncn4)c3c2)cc1)N1CCOCC1,,"female BALB/c mice, brain","intraperitoneal, 10 mg/kg, 24 h, mean",,brain concentration,0 ng/g
CCN1/C(=C/C(C)=O)Sc2ccc(F)cc21,,cynomolgus monkey,"oral, 30 mg/kg, 2 h post-dose",reference: pre-dose,QTc interval change,99 ± 3%
CC/C(=C(\c1ccccc1)c1ccc(OCCN(C)C)cc1)c1ccccc1,,"male Hartley guinea pigs, anaesthetized","intravenous, 3 mg/kg group, baseline before infusion",,mean blood pressure,39 ± 0.2 mmHg
COc1ccc2c(c1)CN(C(=O)CCN1CCC(Cc3ccccc3)CC1)CC[S@@+]2[O-],telemetry,conscious dog,"intravenous, 8 mg/kg, 2 h",,diastolic blood pressure,83 ± 17 mmHg
CC(=O)NCCc1c[nH]c2ccc(O)cc12,"sulfation, substrate",pooled human lung cytosol,"50 µM, 30 min, added: 50 mM NaF",,specific activity,1.29 ± 0.52 pmol/min/mg
Cc1cc(C)cc(C(=O)c2c(C(C)C)c(=O)[nH]c(=O)n2Cc2ccnc(N)c2)c1,,"Sprague-Dawley rat, male, plasma","intravenous, 20 mg/kg",,C0,200 ng/mL
O=C(CCCN1CCC(O)(c2ccc(Cl)cc2)CC1)c1ccc(F)cc1,,"male Hartley guinea pigs, anaesthetized","intravenous, 0.1 mg/kg over 10 min, after infusion",,mean blood pressure,33 ± 0.1 mmHg
CC(C)(C(=O)N1CCOc2c(C#N)cncc2C1)C(F)F,item: general and administration site conditions,"healthy humans, both sexes","oral, 10 mg single dose",,subjects with TEAE,0%
COc1nc(-c2cc(C)c(N[C@@H](C)c3cc(F)cc(F)c3)nn2)ccc1-n1cnc(C)c1,,"cynomolgus monkey, male, plasma","oral, 2 mg/kg",,t1/2,4.1 h
COC(=O)Nc1cc(C(=O)Nc2ccccc2)cc2ccc(C(=N)N)cc12,,,,,pKa,10.8
FC(F)(F)c1ccc(CNc2ccc(Cc3c[nH]c4ncc(Cl)cc34)cn2)cn1,item: weight increased,"human, advanced solid tumours, non-TGCT cohort","oral, 1000 mg/day, grade 3 or higher",,treatment-related adverse events,0%
O=C(Nc1nc2cccc(-c3ccc(CN4CCS(=O)(=O)CC4)cc3)n2n1)C1CC1,item: regurgitation,rheumatoid arthritis patients,"oral, 75 mg once daily, 4 weeks, any relatedness",,treatment-emergent adverse events,0%
O=C(c1cccnc1-c1ccncc1)N1CCC(O)(Cc2ccccc2)CC1,,"healthy Japanese adults, plasma","oral, 200 mg twice daily, day 14",,AUClast/dose,4.3 ng·h/mL/mg
NCCONC(=O)[C@@H]1CC[C@@H]2CN1C(=O)N2OS(=O)(=O)O,phase I clinical trial,healthy Chinese male humans,"intravenous, 1 g",,upper respiratory tract infection incidence,25%
CCOC(=O)c1ccc2nc(NC(=O)c3cccs3)sc2c1,,sheep erythrocytes,"1 h, pH 7.5",,maximum haemolysis,14.9%
CNC(=O)c1ccc(-c2cnc3ncc(Cc4ccc5ncccc5c4)n3n2)cc1F,"CTCAE v4.0, any causality",human hepatocellular carcinoma patients,"oral, 600 mg twice daily, expansion cohort at RP2D",,upper abdominal pain incidence (all grades),0%
CCCOc1ccc([C@H]2CNC(=O)N2c2ccc3[nH]cnc3c2)cc1,,"human volunteers fasted, plasma","oral tablet, 200 mg single dose, crossover, geometric mean",,effective half-life,2.27 h
N=C(N)NCCNC(=O)C1(Nc2ccccc2)CCN(Cc2ccccc2)CC1,,"Sprague-Dawley rats (both sexes), plasma","intravenous, 2.5 mg/kg",,C0,13200 ± 4180 ng/mL
Cc1cc(C(=O)NC(C)(C)COc2cccc3c2C(N)=NS(=O)(=O)N3)cc(C)n1,LC-MS metabolite profiling,"Sprague-Dawley rat, both sexes, plasma","oral, 100 mg/kg of parent drug, 2 (unit not given)",higher = more metabolite,plasma peak area,536000 a.u.
Cc1cc2sc(N)nc2c2cccnc12,,"female BALB/c mice, plasma","intraperitoneal, 30 mg/kg",,elimination rate constant,6.78e-05 s⁻¹
O=C1Cc2cc(CCN3CCN(c4nsc5ccccc45)CC3)c(Cl)cc2N1,,"male Hartley guinea pigs, anaesthetized","intravenous, 1 mg/kg group, baseline before infusion",,mean blood pressure,39 ± 0.3 mmHg
CC(C)[C@@H](CS(=O)(=O)C(C)C)N1C(=O)[C@@](C)(CC(=O)O)C[C@H](c2cccc(Cl)c2)[C@H]1c1ccc(Cl)cc1,,"FVB mice Abcg2 knockout, plasma","intravenous, 20 mg/kg",,AUC(0-inf),28100 ± 4580 ng·h/mL
CN1C(C(=O)Nc2nnc(C(F)(F)F)s2)=C(O)c2ccccc2S1(=O)=O,,,,,pKa (acidic),2
Cc1c(Br)cc(NC(=O)CS(=O)(=O)O)cc1Br,,"CD-1 mice, whole blood","intravenous, 2 mg/kg",,unbound C0,< 85 nM
O=C1CCc2ccc(OCCCCN3CCN(c4cccc(Cl)c4Cl)CC3)cc2N1,item: Hypertension,"genotyped patients, CYP2D6 ultrarapid metabolizers","dose not given, long-acting oral or depot",,adverse event incidence,22%
COc1ccc(C[C@@H](C)[C@@H](C)Cc2ccc(OC)c(OC)c2)cc1OC,,"beagle dog male, plasma","oral, 1000 mg/kg/day, day 28",,Cmax,1660 ± 391 ng/mL
C=CCn1c(=O)c2cnc(Nc3ccc(N4CCN(C)CC4)cc3)nc2n1-c1cccc(C(C)(C)O)n1,,human,"oral, 250 mg once daily, monotherapy lead-in, -5 days",geometric mean,AUC(0-10),6.8 µM·h

# For quick reference, copied from above:
SMILES,test,system,setting,how to read,quantity,result
CC(=O)NCCc1c[nH]c2ccc(O)cc12,"sulfation, substrate",pooled human lung cytosol,"50 µM, 30 min, added: 50 mM NaF",,specific activity,1.29 ± 0.52 pmol/min/mg
Cc1cc(Nc2cc3ncccc3c(N[C@@H]3C[C@H]4CC[C@@H](C3)N4CCC#N)n2)n[nH]1,,healthy human subjects,"oral, 30 mg, 2 weeks, single ascending dose",,papular rash incidence,0%
N=C(N)NCCNC(=O)C1(Nc2ccccc2)CCN(Cc2ccccc2)CC1,,"Sprague-Dawley rats (both sexes), plasma","intravenous, 2.5 mg/kg",,C0,13200 ± 4180 ng/mL
